Measured values pooled from the literature.
Lines come from different studies, so protocols differ. Converted amounts (≈) assume the structure as drawn.

| Structure (SMILES) | organism | assay | system | setting | measurement | value |
| --- | --- | --- | --- | --- | --- | --- |
| CC1=C(Cn2cc(CN3CCC(=O)CC3)nn2)C(=O)c2ccccc2C1=O | Schistosoma mansoni | – | adult worms | 25 µM, 48 h | killing | 42.8% |
| CC(=O)O[C@@H]1[C@@H](OC(C)=O)[C@H](Sc2sc(C(=O)c3ccc(Br)cc3)c(N)c2-c2nc3ccccc3s2)OC[C@@H]1OC(C)=O | hepatitis A virus | plaque reduction | HM 175 | non-toxic concentration | viral titre reduction | 20% |
| [2H]C([2H])([2H])C1(C([2H])([2H])[2H])NC(=O)N(c2ccc(F)c(C(C)(F)F)c2)C1=O | Schistosoma mansoni | – | juvenile stage, infected mice | oral, single dose | ED50 | 18 mg/kg |
| C=C[C@]1(C)C[C@@H](OC(=O)CSc2ccc(NC(=O)c3ccco3)cc2)[C@]2(C)[C@H](C)CC[C@]3(CCC(=O)[C@H]32)[C@@H](C)[C@@H]1O | Mycoplasma gallisepticum | sigmoid Emax model, AUC24h/MIC | infected chickens | – | Emax | -1.07 log10 CFU/mL |
| C[C@@H]1C(=O)O[C@@H](C)/C=C/C=C\[C@@H](C)[C@@H]2C=C[C@@H]3C[C@@]4(C)O[C@H]4[C@@H](C)[C@H]3[C@@H]2C(=O)C(Cl)(Cl)C1=O | Staphylococcus aureus | – | MSSA clinical isolate | resistant: PEN,CHL,ERY,SXT,TET | MIC | 0.025 mg/L (≈ 0.0505 µM) |
| OC(Cn1cncn1)(Cn1cc(-[c-]2cccc2)nn1)c1ccc(F)cc1F.[Cl-].[Co+3].c1cc[cH-]c1 (racemic) | Brugia pahangi | motility, Worminator | adult female | 50 µM, 3 d | inhibition | 2% |
| CC(C)(C)NCC(SS(=O)(=O)O)c1ccccc1 (centres unmarked) | Schistosoma mansoni | – | infected mice | 600 mg/kg single, dosed day 7, perfusion day 44 | mean female worms recovered | 9.2 worms per mouse |
| C=C(NC(=O)c1csc(-c2nc3c(cc2O)-c2nc(cs2)C(=O)NC(C(C)O)C(=O)NC(=C(C)OC)c2nc(cs2)C(=O)NC2c4nc(cs4)C(=O)NC(COC(=O)c4c5c6c(cccc6n4O)COC(=O)C(OC4CC(C)(O)C(N(C)C)C(C)O4)C2OC5)c2nc-3cs2)n1)C(N)=O (centres unmarked) | Staphylococcus aureus | microbial growth | MRSA | clinical isolate | MIC90 | 0.0156 mg/L (≈ 0.0109 µM) |
| FC(F)(F)c1cccc(CNc2nc(NC3CCN(Cc4ccccc4)CC3)c3nc[nH]c3n2)c1 | Cryptococcus neoformans | – | wild type | 17 h | growth-inhibitory concentration | ≥ 36 µM |
| CC1=C(Cn2cc(CN3CCC(F)(F)CC3)nn2)C(=O)c2ccccc2C1=O | Schistosoma mansoni | – | adult worms | 25 µM, 72 h | killing | 51.9% |
| O=C(NCC(O)(Cn1cncn1)c1ccc(F)cc1F)[c-]1cccc1.[Cl-].[Co+3].c1cc[cH-]c1 (racemic) | Brugia pahangi | motility, Worminator | adult female | 50 µM, 2 d | inhibition | 0% |

Repeated from above:
| Structure (SMILES) | organism | assay | system | setting | measurement | value |
| --- | --- | --- | --- | --- | --- | --- |
| CC(=O)O[C@@H]1[C@@H](OC(C)=O)[C@H](Sc2sc(C(=O)c3ccc(Br)cc3)c(N)c2-c2nc3ccccc3s2)OC[C@@H]1OC(C)=O | hepatitis A virus | plaque reduction | HM 175 | non-toxic concentration | viral titre reduction | 20% |
